Measurements pooled from the literature.
Compare with care: the assays were run in different laboratories.
Target: Cyclin-dependent kinase 2 homolog (CRK2, Plasmodium falciparum, UniProt P61075)

SMILES	test	conditions	how to read	quantity	result
C=CC(=O)N1CCCC(n2c(=O)c3ncccc3n(Cc3ccc(Oc4ccccc4)cc3)c2=O)C1 (centres unmarked)	cell-free assay, competition with immobilised ligand	1 µM		remaining binding	95%
CCN1CCN(Cc2ccc(C(=O)Nc3ccc(C)c(NCc4cnc5[nH]ccc5c4OC)c3)cc2C(F)(F)F)CC1	binding, competition with immobilised ligand	1 µM		remaining binding	100%
COc1c(Cl)cccc1Nc1c(-c2ccncc2C#C[C@@]2(C)CCCN2C(=O)/C=C/CN(C)C)[nH]c2c1C(=O)NCC2	cell-free assay, competition with immobilised ligand	3 µM		remaining binding	73%
Cc1ccc(-c2c(/C=C(\C#N)C(=O)NC(C)C)n(CCCO)c3ncnc(N)c23)cc1	cell-free assay, competition with immobilised ligand	1 µM		remaining binding	100%
Nc1ncc2c(n1)-c1c([nH]c3ccc(C4=CCOCC4)cc13)CCC2	binding, competition with immobilised ligand	1 µM		remaining binding	100%
CNC(=O)C1CCN(c2cc(C)c(F)cc2NC(=O)c2ccc(-c3cc(O)ccc3C)c(C)c2)CC1	binding, competition with immobilised ligand	1 µM		remaining binding	97%
CNC1C[S+]2CC[S+]3CC[S+](C1)[Ru-4]321([N]=C=S)[n]2c3ccc(OC)cc3c3c4c(c5cc(F)c[n+]1c5c32)C(=O)NC4=O (centres unmarked)	KinomeScan	0.1 µM	relative to: control	binding	99%
COc1cc(Nc2nccc(-c3cnn4nc(OC)ccc34)n2)cc(C(F)(F)F)c1	binding, competition with immobilised ligand	1 µM		remaining binding	81%
C=CC(=O)N1CCc2ccc(-n3c(=O)ccc4cnc5ccc(-c6cnn(C)c6)cc5c43)cc21	KINOMEscan	1 µM	relative to: control	remaining binding	94%
Cc1cnc2nc1Nc1cccc(c1)COC/C=C/COCc1cc(ccc1OCCN1CCOCC1)N2	cell-free assay	0.1 µM		remaining signal	86%
CC(C)=CC1OC(C)(C)C2C=C3C(=O)C(Cl)=CC(O)C3C3C(O)C4OC4C(=O)C132 (centres unmarked)	cell-free assay, competition with immobilised ligand	10 µM		remaining binding	75%

Some of these lines once more:
SMILES	test	conditions	how to read	quantity	result
Cc1ccc(-c2c(/C=C(\C#N)C(=O)NC(C)C)n(CCCO)c3ncnc(N)c23)cc1	cell-free assay, competition with immobilised ligand	1 µM		remaining binding	100%
